Published values pooled from the literature.
Compare with care: the assays were run in different laboratories. Several values in a cell are separate wells, animals, samples, runs or records. ± gives the spread as reported.
PDE4D: 3',5'-cyclic-AMP phosphodiesterase 4D (PDE4D, Homo sapiens, UniProt Q08499)
MAPK9: Mitogen-activated protein kinase 9 (MAPK9, Homo sapiens, UniProt P45984)
SLC7A5: Large neutral amino acids transporter small subunit 1 (SLC7A5, Homo sapiens, UniProt Q01650)
PSMB5: Proteasome Macropain subunit MB1 (PSMB5, Homo sapiens, UniProt P28074)

COCCCN1CCc2c(Cc3ccc(Cl)cc3)[nH]c3c(OC(F)F)ccc(c23)C1=O gave an IC50 of 1.9 µM (PDE4D; enzyme activity, inhibitor).
For CC(C)=CCc1c(O)c(CC=C(C)C)c2occ(-c3ccc(O)c(O)c3)c(=O)c2c1O, the IC50 was 29 ± 4.4 µM (MAL62 (Saccharomyces cerevisiae, UniProt P07265); enzyme activity, inhibitor; with: PNPG 500 µM).
With COC(=O)CCSc1nc2n(n1)C(c1cccc(OC)c1)C(C(=O)Nc1cccnc1)=C(C)N2 (centres unmarked) the IC50 was 0.016 µM (MTOR (Homo sapiens, UniProt P42345); enzyme activity, inhibitor, TR-FRET).
O=C(O)C(CO)NCc1cc(Cl)c(OCc2cccc(-c3ccccc3)c2Br)cc1OCc1cccnc1 (centres unmarked) gave an IC50 of over 10 µM (CTLA4/CD86 (Homo sapiens, UniProt P16410+P42081); PD-1/PD-L1 interaction, inhibitor, ELISA).
For Oc1ccc(CCC(O)CC(O)CCc2ccc(O)cc2)cc1 (centres unmarked), the IC50 was 196 µM (Maob (Rattus norvegicus, UniProt P19643); enzyme activity, inhibitor).
For CC[C@H](C)[C@H](NC(=O)[C@@H](NC(=O)[C@H](CSC(C(=O)O)c1ccccc1[N+](=O)[O-])NC(=O)[C@H](CCCCN)NC(=O)[C@@H](NC(=O)[C@H](CCCCN)NC(=O)[C@H](CO)NC(=O)[C@H](CCCCN)NC(=O)[C@H](CCCCN)NC(=O)[C@@H](N)CCCCN)[C@@H](C)O)C(C)C)C(=O)N[C@@H](CCSC)C(=O)O (some centres unmarked), the IC50 was 4.7 ± 1.8 µM (Protein farnesyltransferase (Rattus norvegicus, UniProt Q02293+Q04631); inhibitor; pH 7.5).
The IC50 of O=C(CCc1cccc2c1B(O)OC2)Nc1ccccc1N1CCOCC1 is reported as about 6 µM (CPSF3 (Homo sapiens, UniProt Q9UKF6); ligand displacement, FP).
With Cc1cc(C)c(S(=O)(=O)Nc2ccc3c(c2)nc(CCCCCCCNC(=O)CCCCCN2CCN(c4ccc5c(c4)C(=O)N(C4CCC(=O)NC4=O)C5=O)CC2)n3Cc2ccccc2)c(C)c1 (centres unmarked) the IC50 was 1.21 µM (NR1I2 (Homo sapiens, UniProt O75469); ligand displacement, TR-FRET).
For CC(C)C[C@H](NC(=O)[C@H](CC(N)=O)NC(=O)[C@H](CC(C)C)NC(=O)[C@@H](NC(=O)[C@@H](NC(=O)[C@@H]1CCCN1C(=O)[C@H](CCCNC(=N)N)NC(=O)[C@H](CCCCN)NC(=O)[C@@H]1CCCN1)[C@@H](C)O)[C@@H](C)O)C(=O)N[C@@H](Cc1ccccc1)C(=O)NCCCCCC(=O)N[C@@H](CCCNC(=N)N)C(=O)N[C@@H](CCCNC(=N)N)C(=O)N[C@@H](CCCNC(=N)N)C(=O)N[C@@H](CCCNC(=N)N)C(=O)N[C@@H](CCCNC(=N)N)C(=O)N[C@@H](CCCNC(=N)N)C(=O)N[C@@H](CCCNC(=N)N)C(=O)N[C@@H](CCCNC(=N)N)C(=O)N[C@@H](CCCNC(=N)N)C(N)=O, the IC50 was ~0.09 µM and 0.089 µM (MAPK9; enzyme activity, inhibitor).
The IC50 of O=C(O)c1ccc(/N=N/c2cc(C(=O)O)c(O)c3ccccc23)cc1 is reported as 4.14 µM (GLO1 (Homo sapiens, UniProt Q04760); enzyme activity, inhibitor).
With CN(C)c1ccc2cc(S(=O)(=O)N3CC3C(N)=O)ccc2c1 (centres unmarked) the IC50 was 130 µM (PDIA3 (Homo sapiens, UniProt P30101); enzyme activity, inhibitor, absorbance; pH 7.6).
With Cc1cc(NC(=O)c2cccc(-n3cc(NC(=O)Nc4ccc(F)cc4)cn3)c2)ccn1 the IC50 was 0.133 µM (MAPK9; enzyme activity, inhibitor).
For CC(=O)C12NC(C)(C)CC1(C)C(=O)C1=C2c2c(c3c4n2C(C)(C)CC2=C4C4(CC(C)(C)NC(C)(C4)C2=O)CC3(C)C)C(=O)C(C)(C)N1 (single isomer, unassigned; (+)), the IC50 was 2.2 µM and 4.2 µM (KCNA2 (Homo sapiens, UniProt P16389); ion current, inhibitor, patch clamp).
O=C(N[C@@H](Cc1coc2ccccc12)B(O)O)[C@@H]1C[C@H]2CC[C@@H]1O2 gave an IC50 of over 30 µM (Proteasome subunit beta type-1/Psmb8, LMP7 subunit (Mus musculus, UniProt O09061+P28063); LMP7 enzyme activity, inhibitor; mouse P3X63Ag8.653; 2 h, tested up to 30000 nM).
The IC50 of CC(C)NC1CCN(S(=O)(=O)Nc2ccc(F)c(F)c2Nc2ccc(I)cc2Cl)CC1 is reported as 0.062 µM (MAP2K1 (Homo sapiens, UniProt Q02750); enzyme activity, inhibitor).
N[C@@H](Cc1c[nH]c2ccc(OCc3ccc(-c4ccoc4)cc3)cc12)C(=O)O gave an IC50 of 26 µM (SLC7A5; transporter uptake, inhibitor, radiometric).
The IC50 of C[C@]12CC[C@@H]3c4ccc(OCc5ccccc5)cc4CC[C@H]3[C@@H]1[C@H](OCCCC(=O)O)CC2=O is reported as 3.5 µM (HSD17B1 (Homo sapiens, UniProt P14061); enzyme activity, inhibitor, radiometric).
The IC50 of CC[C@H](C)[C@H](NC(=O)[C@H](CC(C)C)NC(=O)[C@H](CCCNC(=N)N)NC(=O)c1ccc(CN2CCNCC2)cc1)C(=O)N[C@@H](Cc1ccccc1)C(N)=O is reported as 11.7 ± 5.92 µM (G1/S-specific cyclin-D1, with CDK4 (Homo sapiens, UniProt P24385); binding to cyclin groove, inhibitor, fluorescence polarization competition).
The IC50 of O=C(COCCCc1ccccc1)N[C@@H](Cc1cn(CCNC(=O)c2ccc(S[C@@H]3O[C@H](CO)[C@H](O)[C@H](O)[C@H]3O)cc2)nn1)C(=O)NCCO is reported as 41.7 µM (lecA (Pseudomonas aeruginosa, UniProt Q05097); ligand displacement, FP).
N[C@@H](Cc1c[nH]c2ccc(OCc3ccccc3-c3ccoc3)cc12)C(=O)O gave an IC50 of 16 µM (SLC7A5; transporter uptake, inhibitor, radiometric).
For COCCNc1nc(-c2nccn2C)nc2sc(-c3cccc(OC)c3Cl)c(-c3ccccc3)c12, the IC50 was 0.3 µM (RAB5A (Homo sapiens, UniProt P20339); GTP binding, inhibitor; with: fluorescent GTP 100 nM).
The IC50 of N=C(NCCCCC(N)C(N)=O)NCCSCC1OC(n2cnc3c(N)ncnc32)C(O)C1O (centres unmarked) is reported as over 100 µM (N-terminal Xaa-Pro-Lys N-methyltransferase 1 (Homo sapiens, UniProt Q9BV86); enzyme activity, inhibitor, fluorescence).
COc1ccc(C(=O)/C=C/c2ccc(O)cc2)c(O)c1CC=C(C)C has an IC50 of 3520 µM (Maoa (Rattus norvegicus, UniProt P21396); enzyme activity, inhibitor; with: serotonin).
COc1ccc(S(=O)(=O)N(CC(=O)O)c2ccc(N(CC(=O)O)S(=O)(=O)c3ccc(OC)cc3)cc2)cc1 has an IC50 of 1.25 µM (Kelch-like ECH-associated protein 1, Kelch domain (KEAP1, Homo sapiens, UniProt Q14145); Keap1-Nrf2 interaction, inhibitor, fluorescence polarisation).
The IC50 of C=C(NC(=O)C(=C)NC(=O)c1csc(C2=NC3c4csc(n4)C4NC(=O)c5csc(n5)C(C(C)(O)C(C)O)NC(=O)C5CSC(=N5)C(=CC)NC(=O)C(C(C)O)NC(=O)c5csc(n5)C3(CC2)NC(=O)C(=C)NC(=O)C(=C)NC(=O)C(C)NC(=O)C(C(C)CC)NC2C=Cc3c(C(C)O)cc(nc3C2O)C(=O)OC4C)n1)C(N)=O (centres unmarked) is reported as 2.73 ± 0.2 µM (PSMB5; chymotrypsin-like activity, inhibitor; purified 20S proteasome; 15 min preincubation, 37 °C, with: Suc-Leu-Leu-Val-Tyr-AMC substrate).
For Cc1ccc(CNC(=O)[C@H](CCc2ccccc2)NC(=O)[C@H](CCc2ccccc2)NC(=O)Cc2cccc(Oc3ccccc3)c2)cc1, the IC50 was over 100 µM (Proteasome subunit beta type-3/PSMB7 (Homo sapiens, UniProt P49720+Q99436); inhibitor).
The IC50 of COC(=O)[C@@H](CS)N1C(=O)c2ccc(N(C)C)cc2C1=O is reported as 7.9 µM (blaNDM-1 (Klebsiella pneumoniae, UniProt C7C422); enzyme activity, inhibitor; pH 7).
With O=C(O[C@@H]1Cc2c(O)cc(O)cc2O[C@@H]1c1ccc(O)c(O)c1)c1cc(O)c(O)c(O)c1 the IC50 was 27.3 µM (maltase, rat; enzyme activity, inhibitor; rat intestinal brush border vesicles).
For CC(C)C[C@@H](/C=C/S(C)(=O)=O)NC(=O)[C@H](CC(C)C)NC(=O)[C@@H](NC(=O)N[C@H](C(=O)O)C(C)C)C(C)C, the IC50 was 4.2 µM (PSMB5; active site labelling, inhibitor, probe competition gel; HEK-293T cell lysate; 1 h, 37 °C, with: activity-based probe 0.5 µM).
For N=C(N)NCCCC(N)C(=O)NCC(=O)NC(CCCCNC(=N)NCCCSCC1OC(n2cnc3c(N)ncnc32)C(O)C1O)C(N)=O (centres unmarked), the IC50 was 5.6 ± 0.1 µM (PRMT1 (Homo sapiens, UniProt Q99873); inhibitor).
With CN(C(=O)c1ccn2ncc(-c3ccc(C(N)=O)cc3)c2c1)c1ccc(C#N)cn1 the IC50 was over 30 µM (PDE4D; cell-free assay).
C=CCc1ccc(OCc2nnc(SCC(=O)Nc3ccc(Cl)cc3Cl)o2)c(OC)c1 gave an IC50 of 3.67 µM (TYMS (Homo sapiens, UniProt P04818); enzyme activity, inhibitor).

Repeated from above:
N[C@@H](Cc1c[nH]c2ccc(OCc3ccccc3-c3ccoc3)cc12)C(=O)O gave an IC50 of 16 µM (SLC7A5; transporter uptake, inhibitor, radiometric).
For COCCNc1nc(-c2nccn2C)nc2sc(-c3cccc(OC)c3Cl)c(-c3ccccc3)c12, the IC50 was 0.3 µM (RAB5A (Homo sapiens, UniProt P20339); GTP binding, inhibitor; with: fluorescent GTP 100 nM).
